Measurements collected from several papers.
Each line is one published result; not all experiments were run side by side.
Organism: Staphylococcus aureus

SMILES	test	system	conditions	MIC
CC(C)C[C@@H](NC(=O)[C@H](C)NC(=O)CNC(=O)[C@@H](NC=O)C(C)C)C(=O)N[C@@H](C)C(=O)N[C@@H](C(=O)N[C@H](C(=O)N[C@@H](C(=O)N[C@@H](Cc1c[nH]c2ccccc12)C(=O)N[C@H](CC(C)C)C(=O)N[C@@H](Cc1ccc2[nH]ccc2c1)C(=O)N[C@H](CC(C)C)C(=O)N[C@@H](Cc1c[nH]c2ccccc12)C(=O)N[C@@H](C(=O)N[C@@H](Cc1c[nH]c2ccccc12)C(=O)NCCO)C(C)C)[C@H](C)O)C(C)C)C(C)C	broth microdilution	MSSA1, methicillin-susceptible	–	8.6 µM
CC[C@H](C)[C@H](N)C(=O)N[C@@H](CC(C)C)C(=O)NCC(=O)N[C@@H](CCC(=O)O)C(=O)N[C@H](C(=O)N[C@@H](Cc1c[nH]c2ccccc12)C(=O)N[C@@H](CCCCN)C(=O)NCC(=O)N[C@H](C(=O)N[C@@H](CCCCN)C(=O)N[C@@H](CC(=O)O)C(=O)N[C@H](C(=O)N[C@@H](CC(C)C)C(N)=O)[C@@H](C)CC)[C@@H](C)CC)[C@@H](C)CC	broth microdilution	ATCC 25923	added: NH4Cl 6 µM	> 100 µM
CC[C@@H](C)[C@@H](N)C(=O)N[C@@H](C(=O)N[C@H](Cc1ccc(O)cc1)C(=O)N[C@@H](C(=O)N[C@H](CCN)C(=O)N[C@H](CC(C)C)C(=O)N[C@H](CO)C(=O)N[C@H](CCN)C(=O)N[C@@H](C(=O)N[C@H](CCN)C(=O)N[C@H](Cc1c[nH]cn1)C(=O)N[C@H](CCN)C(=O)N[C@H](C)C(=O)N[C@H](CCN)C(=O)N[C@H](CCN)C(N)=O)[C@H](C)CC)[C@H](C)CC)[C@H](C)CC	–	ATCC 43300, Mueller-Hinton broth	–	4 mg/L
CC[C@H](C)[C@H](NC(=O)[C@H](Cc1c[nH]c2ccccc12)NC(=O)[C@@H](NC(=O)[C@H](Cc1ccc(O)cc1)NC(=O)[C@@H]1CCCN1C(=O)[C@@H](NC(=O)[C@H](C)N)[C@@H](C)CC)[C@@H](C)CC)C(=O)N[C@@H](Cc1ccc(O)cc1)C(=O)N[C@@H](CCCNC(=N)N)C(=O)N[C@@H](CC(C)C)C(=O)N[C@@H](CC(C)C)C(=O)N[C@@H](CCCNC(=N)N)C(=O)N[C@@H](CCCCN)C(=O)NCC(N)=O	broth microdilution	ATCC 6051	18 h, 37 °C	1.88 µM
COc1ccc2ccc(O)c(/C=N/[C@H]3CCCC[C@H]3/N=C/c3ccc(-c4ccccc4)cc3O)c2c1	bacterial growth, broth microdilution	vancomycin-intermediate	–	> 40 µM
CC[C@H](C)[C@H](NC(=O)[C@H](CC(C)C)NC(=O)[C@H](CCCNC(=N)N)NC(=O)[C@@H](N)CCCNC(=N)N)C(=O)N[C@@H](CCCNC(=N)N)C(=O)N[C@H](C(=O)N[C@@H](CC(C)C)C(=O)N[C@H](C(=O)NCC(=O)N1CCC[C@H]1C(=O)N[C@H](C(=O)N[C@H](C(=O)N[C@@H](Cc1ccc(O)cc1)C(=O)N[C@@H](CC(C)C)C(=O)N[C@@H](Cc1ccc(O)cc1)C(=O)N[C@@H](Cc1ccccc1)C(=O)N[C@@H](CCCCN)C(=O)N[C@@H](CC(C)C)C(=O)N[C@@H](CCC(N)=O)C(=O)N[C@@H](CC(C)C)C(=O)N[C@@H](CC(C)C)C(=O)N[C@@H](CCCCN)C(=O)N[C@@H](CCCCN)C(N)=O)[C@@H](C)CC)[C@@H](C)CC)[C@@H](C)O)[C@@H](C)O	–	CCARM 3095, methicillin-resistant, Mueller-Hinton broth	24 h	128 µM
COc1ccc(CC2NCCc3cc(OC)c(OC)cc32)cc1OC.Cl (stereo not shown)	–	–	24 h, 37 °C	> 1600 µM
C[C@@H](O)[C@H](NC(=O)[C@H](Cc1ccccc1)NC(=O)[C@H](Cc1c[nH]c2ccccc12)NC(=O)[C@H](Cc1ccccc1)NC(=O)[C@@H](NC(=O)[C@H](Cc1ccccc1)NC(=O)[C@H](CCCNC(=N)N)NC(=O)[C@@H](N)CCCNC(=N)N)[C@@H](C)O)C(=O)N[C@@H](Cc1ccccc1)C(=O)N[C@@H](CCCNC(=N)N)C(=O)N[C@@H](CCCNC(=N)N)C(N)=O	broth microdilution	29213, Mueller-Hinton broth	24 h, 37 °C, lowest concentration, 95% inhibition, added: BSA	128 µM
CC[C@H](C)[C@H](NC(=O)[C@H](CC(C)C)NC(=O)[C@@H](NC(=O)[C@H](CCCNC(=N)N)NC(=O)[C@H](CCCNC(=N)N)NC(=O)[C@H](CCCNC(=N)N)NC(=O)[C@@H](N)CCCNC(=N)N)[C@@H](C)CC)C(=O)N[C@@H](CCCCN)C(=O)N[C@@H](CCCCN)C(=O)N[C@H](C(=O)N[C@@H](CC(C)C)C(=O)N[C@@H](CCCCN)C(=O)N[C@@H](CC(C)C)C(=O)N[C@@H](CCCCN)C(=O)N[C@@H](CO)C(=O)N[C@@H](CO)C(=O)N[C@@H](C)C(=O)N[C@@H](Cc1ccc(O)cc1)C(N)=O)C(C)C	broth microdilution	–	24 h, 37 °C	64 µM
CC(C)C[C@H](NC(=O)[C@@H](NC(=O)[C@H](CCCNC(=N)N)NC(=O)[C@H](CCC(N)=O)NC(=O)[C@H](Cc1ccccc1)NC(=O)[C@H](Cc1ccc(O)cc1)NC(=O)[C@H](CC(N)=O)NC(=O)[C@H](Cc1c[nH]c2ccccc12)NC(=O)[C@@H](NC(=O)[C@H](CCCNC(=N)N)NC(=O)[C@H](CCCCN)NC(=O)[C@@H](N)Cc1ccccc1)C(C)C)C(C)C)C(=O)N[C@H](C(=O)N[C@@H](CCCCN)C(=O)N[C@@H](CCCCN)C(=O)N[C@@H](Cc1ccc(O)cc1)C(=O)N[C@@H](C)C(N)=O)C(C)C	broth dilution	ATCC 25923, Mueller-Hinton broth	24 h, 37 °C	200 µM
CC[C@H](C)[C@H](NC(=O)[C@H](CC(C)C)NC(=O)[C@H](CCCNC(=N)N)NC(=O)[C@@H](N)CCCNC(=N)N)C(=O)N[C@@H](CC(C)C)C(=O)N[C@H](C(=O)N[C@@H](CCCCN)C(=O)N[C@H](C(=O)NCC(=O)N1CCC[C@H]1C(=O)N[C@H](C(=O)N[C@H](C(=O)N[C@@H](Cc1ccc(O)cc1)C(=O)N[C@@H](CCCCN)C(=O)N[C@@H](Cc1ccc(O)cc1)C(=O)N[C@@H](Cc1ccccc1)C(=O)N[C@@H](CCCCN)C(=O)N[C@@H](CCCCN)C(=O)N[C@@H](CCC(N)=O)C(=O)N[C@@H](CC(C)C)C(=O)N[C@@H](CC(C)C)C(=O)N[C@@H](CCCCN)C(=O)N[C@@H](CC(C)C)C(N)=O)[C@@H](C)CC)[C@@H](C)CC)[C@@H](C)O)[C@@H](C)O	broth microdilution	KCTC 1621, Mueller-Hinton broth	24 h, 37 °C	16 µM
CC[C@H](C)[C@H](NC(=O)[C@H](CC(C)C)NC(=O)[C@H](CCCCN)NC(=O)[C@@H](NC(=O)[C@H](C)NC(=O)[C@H](CCC(=O)O)NC(=O)[C@H](Cc1c[nH]cn1)NC(=O)[C@@H](NC(=O)[C@H](CCCCN)NC(=O)[C@H](CCC(N)=O)NC(=O)[C@H](Cc1ccccc1)NC(=O)[C@@H](N)C(C)C)[C@@H](C)CC)[C@@H](C)CC)C(N)=O	broth microdilution	USA300 resistant	18 h, 37 °C	> 128 µM
CC[C@H](C)[C@H](NC(=O)[C@H](CO)NC(=O)CNC(=O)[C@H](CCCCN)NC(=O)[C@@H](NC(=O)[C@H](CC(N)=O)NC(=O)[C@H](Cc1ccccc1)NC(=O)[C@H](CC(N)=O)NC(=O)[C@@H](NC(=O)[C@H](CCCNC(=N)N)NC(=O)[C@@H]1CCCN1C(=O)[C@H](CCCNC(=N)N)NC(=O)[C@@H](NC(=O)[C@H](CCCNC(=N)N)NC(=O)[C@H](CCCNC(=N)N)NC(=O)[C@@H](NC(=O)[C@H](CCCNC(=N)N)NC(=O)[C@H](CO)NC(=O)[C@H](CC(C)C)NC(=O)[C@H](Cc1ccccc1)NC(=O)[C@H](CCCNC(=N)N)NC(=O)CNC(=O)[C@H](Cc1ccccc1)NC(=O)[C@H](CCCNC(=N)N)NC(=O)CNC(=O)[C@H](CCCNC(=N)N)NC(=O)[C@H](CCC(N)=O)NC(=O)[C@@H](NC(=O)[C@@H](N)CC(C)C)C(C)C)[C@@H](C)CC)[C@@H](C)CC)[C@@H](C)CC)[C@@H](C)CC)C(=O)O	broth microdilution	ATCC 25923, Mueller-Hinton broth	16 to 20 h, 37 °C	0.311 µM

Excerpt of the above:
SMILES	test	system	conditions	MIC
CC[C@H](C)[C@H](NC(=O)[C@H](CC(C)C)NC(=O)[C@H](CCCNC(=N)N)NC(=O)[C@@H](N)CCCNC(=N)N)C(=O)N[C@@H](CCCNC(=N)N)C(=O)N[C@H](C(=O)N[C@@H](CC(C)C)C(=O)N[C@H](C(=O)NCC(=O)N1CCC[C@H]1C(=O)N[C@H](C(=O)N[C@H](C(=O)N[C@@H](Cc1ccc(O)cc1)C(=O)N[C@@H](CC(C)C)C(=O)N[C@@H](Cc1ccc(O)cc1)C(=O)N[C@@H](Cc1ccccc1)C(=O)N[C@@H](CCCCN)C(=O)N[C@@H](CC(C)C)C(=O)N[C@@H](CCC(N)=O)C(=O)N[C@@H](CC(C)C)C(=O)N[C@@H](CC(C)C)C(=O)N[C@@H](CCCCN)C(=O)N[C@@H](CCCCN)C(N)=O)[C@@H](C)CC)[C@@H](C)CC)[C@@H](C)O)[C@@H](C)O	–	CCARM 3095, methicillin-resistant, Mueller-Hinton broth	24 h	128 µM
